Assay results gathered from unrelated publications.
Compare with care: the assays were run in different laboratories. Numbers after ± are the reported error.
Organism: HIV-1

CC(C)CN(C[C@@H](O)[C@H](Cc1ccccc1)NC(=O)O[C@H]1CO[C@H]2OCC[C@H]21)S(=O)(=O)c1ccc(N)cc1 — IC50 (viral replication; MT-4): 0.0042 ± 0.0009 µM
COc1ccnc2[nH]cc(C(=O)C(=O)N3CCN(C(=O)c4ccccc4)C[C@H]3C)c12 — IC50 (viral replication, inhibitor, pseudovirus neutralization; TZM-bl, 3365.v2.c20; 48 h): > 20 µM
Cc1ccc(-c2ccc3c(c2)C=C(C(=O)Nc2ccc(C[N+](C)(C)C4CCOCC4)cc2)CCC3)cc1 — IC50 (viral attachment; MAGI, Ba-L; washout 3 h post infection): 0.007 µM
CCCC(C(=O)O)c1c(C)nc2ccc(Cl)cc2c1-c1ccccc1 (centres unmarked) — IC50 (viral replication, refers to: Gag p24; MT-4, NL4-3): 7 µM
CC(C)(C)NC(=O)[C@@H]1C[C@@H]2CCCC[C@@H]2CN1C[C@@H](O)[C@H](Cc1ccccc1)NC(=O)[C@H](CC(N)=O)NC(=O)c1ccc2ccccc2n1 — IC50 (viral replication, MTT; MT-2, LAI): 0.015 µM
COc1cc(-c2oc3cc(O)cc(O)c3c(=O)c2O[C@@H]2O[C@H](CO)[C@@H](O)[C@H](O)[C@H]2O)ccc1O — IC50 (viral infection; TZM-bl, BaL (CCR5-tropic); 48 h): > 100 µM
COc1ccccc1CC(=N)N1C[C@@H]2C(=O)CCC(c3ccccc3)(c3ccccc3)[C@@H]2C1 — IC50 (viral replication, refers to: p24; PHA-stimulated PBMC, BaL (CCR5-tropic); 7 days): 11 µM
OC[C@H]1O[C@@H](O[C@H]2[C@H](Oc3cc4c(O)cc(O)cc4[o+]c3-c3ccc(O)c(O)c3)O[C@H](CO)[C@@H](O)[C@@H]2O)[C@H](O)[C@@H](O)[C@@H]1O — IC50 (viral infection; TZM-bl, BaL (CCR5-tropic); 48 h): 87.4 µM
FC(F)(F)c1cc(CO[C@H]2CCCN[C@H]2c2ccccc2)cc(C(F)(F)F)c1 — IC50 (viral replication, refers to: p24; PHA-stimulated PBMC, BaL (CCR5-tropic); 7 days): 5.6 µM
COc1cc(-c2oc3cc(O)cc(O)c3c(=O)c2O[C@@H]2O[C@H](CO[C@@H]3O[C@@H](C)[C@H](O)[C@@H](O)[C@H]3O)[C@@H](O)[C@H](O)[C@H]2O)ccc1O — IC50 (viral infection; TZM-bl, BaL (CCR5-tropic); 48 h): > 100 µM
CC(C)CN(C[C@@H](O)[C@H](Cc1ccccc1)NC(=O)O[C@H]1C[C@@H]2C[C@H]3[C@H](OC[C@H]31)O2)S(=O)(=O)c1ccc2nc(NC3CC3)sc2c1 — IC50 (viral replication, antiviral; MT2, LAI): 0.0009 µM

A few entries again:
COc1cc(-c2oc3cc(O)cc(O)c3c(=O)c2O[C@@H]2O[C@H](CO)[C@@H](O)[C@H](O)[C@H]2O)ccc1O — IC50 (viral infection; TZM-bl, BaL (CCR5-tropic); 48 h): > 100 µM
